# Published values of several laboratories.
# A part holds a random share of what one study measured. Substitutions count along the parent as printed.

# Study 1
# Target: Histone acetyltransferase KAT6A, winged helix 2, GST fusion (KAT6A, Homo sapiens, UniProt Q92794, residues 85-181)
# Technique: protein binding microarray
# Form: double-stranded DNA, one strand shown
# Sample: in vitro
# Tested at: not given
# Notes: 8-mer, flanks averaged, mean of 2 arrays, mostly near background
# Reference: not given
# Reading: higher = stronger binding
# Construct (chain): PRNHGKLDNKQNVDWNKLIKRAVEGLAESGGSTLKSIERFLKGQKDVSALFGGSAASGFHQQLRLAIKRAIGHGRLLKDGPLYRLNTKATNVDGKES
Oligonucleotide,E-score
CTGGGCAA,0.183
CAGGCCTG,-0.0877
CCATTTTC,0.0399
AACATTGG,-0.186
AAATTATT,0.0666
ATTCAATG,0.0976
ATTGTCGA,-0.0717
CGGGACGA,0.159
TGACCAAA,0.0176
CATGGCTA,-0.108
GCGGAAGC,0.182
CCCACGGC,0.215

# Study 2
# Target: CCNB2, cyclin fold, Cln2 fusion (human)
# Technique: yeast growth competition, sequencing
# Sample: yeast
# Notes: strong parent motif
# Reference: not given
# Reading: higher = stronger binding
# Parent: E2F1 docking peptide (human); PPVKRRLDFETDH
Change,normalised enrichment score
PSVKRRLDFETDH [P2S],3.47
PPVKRRIDFETDH [L7I],2.65
PPSKRRLDFETDH [V3S],0.604
PPVKRRLDFETLH [D12L],3.16
PPVKRRLDFEMDH [T11M],4.1
PPVKFRLDFETDH [R5F],0.432

# Study 3
# Target: Microphthalmia-associated transcription factor, full length (MITF, Homo sapiens, UniProt O75030-10, residues 1-413)
# Technique: protein-binding microarray
# Form: hairpin DNA
# Sample: in vitro
# Tested at: not given
# Notes: whole hairpin DNA, median over replicate spots
# Reference: not given
# Reading: higher = stronger binding
Oligonucleotide,median fluorescence [a.u.]
CACTCGGCACGTGATTTTGGTCCTCCAAAATCACGTGCCGAGTGACACTC,28600
GAGGCCTAGCACCTGCTGCCTCCTGGCAGCAGGTGCTAGGCCTCACACTC,8060
GAGGCCTAGCACGTGCCGCCTCCTGGCGGCACGTGCTAGGCCTCACACTC (5mC at 17),24800
CACTTAGCACCGGATTTTGGTCCTCCAAAATCCGGTGCTAAGTGACACTC (5mC at 33),5140
CACTTACGACGTGATTTTGGTCCTCCAAAATCACGTCGTAAGTGACACTC,6100
GAGGCCTGGCACGTGCTGCCTCCTGGCAGCACGTGCCAGGCCTCACACTC (5mC at 37),22200
GAGGCCTAGCACGTGCTGCCTCCTGGCAGCACGTGCTAGGCCTCACACTC (5mC at 12 32),6740
CACTTAGCACGCGATTTTGGTCCTCCAAAATCGCGTGCTAAGTGACACTC,9830
CACTTAGCACGTGATTTTGGTCCTCCAAAATCACGTGCTAAGTGACACTC (5mC at 32),6990
GAGGCCTACGACGTGCTGCCTCCTGGCAGCACGTCGTAGGCCTCACACTC,7070
CACTCGGCACGTGATTTTGGTCCTCCAAAATCACGTGCCGAGTGACACTC (5mC at 5),26200

# Study 4
# Molecule: PhoQ, residues 284 288 289 292 302 303 SSTLSG
# Technique: Sort-seq
# Measured: YFP reporter
# Sample: E. coli
# Notes: PhoQ-PhoP variant library
# With: 10 µM Mg2+
# Reference: high Mg2+ state
# Reading: higher = stronger signaling
target,fold induction
"PhoP, residues 12 14 15 18 19 HHYTI (Escherichia coli, UniProt P23836)",8.68
"PhoP, residues 12 14 15 18 19 AYFRS (Escherichia coli, UniProt P23836)",4.47
"PhoP, residues 12 14 15 18 19 SFCSL (Escherichia coli, UniProt P23836)",11.1

# A few entries again (study 3):
Oligonucleotide,median fluorescence [a.u.]
CACTTAGCACGCGATTTTGGTCCTCCAAAATCGCGTGCTAAGTGACACTC,9830
CACTCGGCACGTGATTTTGGTCCTCCAAAATCACGTGCCGAGTGACACTC (5mC at 5),26200
GAGGCCTGGCACGTGCTGCCTCCTGGCAGCACGTGCCAGGCCTCACACTC (5mC at 37),22200
CACTTAGCACCGGATTTTGGTCCTCCAAAATCCGGTGCTAAGTGACACTC (5mC at 33),5140
GAGGCCTAGCACGTGCTGCCTCCTGGCAGCACGTGCTAGGCCTCACACTC (5mC at 12 32),6740
